Measurements of several laboratories.
Every numbered part comes from another study and shows a few of its results, in no order. Changes are numbered by the printed parent chain.

Sample 1
Target: Ras GTPase-activating protein-binding protein 1, C-terminal RGG region (G3BP1, Homo sapiens, UniProt Q13283)
Chain of UniProt Q13283 (whole entry, looked up): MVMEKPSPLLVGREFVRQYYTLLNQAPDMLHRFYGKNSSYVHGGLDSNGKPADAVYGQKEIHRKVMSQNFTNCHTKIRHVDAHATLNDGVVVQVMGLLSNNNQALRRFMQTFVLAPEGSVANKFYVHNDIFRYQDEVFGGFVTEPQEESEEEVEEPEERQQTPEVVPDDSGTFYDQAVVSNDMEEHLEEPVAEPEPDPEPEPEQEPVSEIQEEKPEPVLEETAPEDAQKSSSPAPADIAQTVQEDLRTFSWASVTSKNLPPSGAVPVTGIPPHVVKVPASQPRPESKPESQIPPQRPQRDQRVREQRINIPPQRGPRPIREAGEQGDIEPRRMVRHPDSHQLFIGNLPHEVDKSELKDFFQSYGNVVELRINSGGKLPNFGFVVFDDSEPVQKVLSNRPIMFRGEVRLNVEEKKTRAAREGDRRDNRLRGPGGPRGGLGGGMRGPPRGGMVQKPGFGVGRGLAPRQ
Technique: RNA Bind-n-Seq
Molecule type: RNA
Sample: in vitro
Concentration: 1 µM
Notes: whole 134-nt RNA, ends assumed
Together with: 150 mM KCl
Baseline: input library
Direction: higher = stronger binding
Shared flanks, not repeated: GGGAGUUCUACAGUCCGACGAUC … UGGAAUUCUCGGGUGUCAAGG
| Oligonucleotide | log2 enrichment |
| --- | --- |
| CUCAAGUCCUGUGCUACACAUCGUAUGUACCGAAUCGGGUUGGGUUGGUUGGGAAAGUAUUAUGUUACGCCGUUCGGAUCUGCACUUCCA | 0.213 |
| AGUCCUGUGCUACACAUCGUAUGUACCGAAUCGGUUUUUGGUUUUUUUGGAAAAAGGAAAGUAUUAUGUUACGCCGUUCGGAUCUGCACU | -2.12 |
| AGUCCUGUGCUACACAUCGUAUGUACCGAAUCGGGGAAAAGGGAAAAGGAAAAGGGGAAAGUAUUAUGUUACGCCGUUCGGAUCUGCACU | -0.391 |
| UAAUUGUGAUCUACAUUUUAAAAUAUCAAGAGAUCGUCUCAGUGCUUCUUCCCUUACAAUGGAGAGUUUUGCUUUUCUUUGGGCUGGAGG | -1.15 |
| ACCACUGCUACAGUCACCACCACCCAGGCCUCCUAUGCAGCUCAGUCUGCAUAUGGCACUCAGCCUGCUUAUCCAGCCUAUGGGCAGCAG | -0.225 |
| GUCCUGUGCUACACAUCGUAUGUACCGAAUCGGGGUUUGGGGUUUUUGGGGAAAGGGGAAAGUAUUAUGUUACGCCGUUCGGAUCUGCAC | 2.52 |
| GUCCUGUGCUACACAUCGUAUGUACCGAAUCGGGGAAAAAAAGGGGAGGGGUUUGGGGAAAGUAUUAUGUUACGCCGUUCGGAUCUGCAC | 1.9 |
| CACAGACAACACGCACCCACACAGACACAGAGGGAAGGGGUUGGGAUGGGGACAGGGUGCACAGCAGAGCGGGGUAGGACCCCAGCCCCU | -0.747 |
| AGUCCUGUGCUACACAUCGUAUGUACCGAAUCGGGCCCCGGGCCCCGGGGCCCCGGGAAAGUAUUAUGUUACGCCGUUCGGAUCUGCACU | -0.333 |

Sample 2
Target: CCND2, cyclin fold, Cln2 fusion (human)
Technique: yeast growth competition, sequencing
Sample: yeast
Notes: weak parent motif
Baseline: not given
Direction: higher = stronger binding
Starting sequence: CENPC docking peptide (human); VKTKKRLNFDDKV; partner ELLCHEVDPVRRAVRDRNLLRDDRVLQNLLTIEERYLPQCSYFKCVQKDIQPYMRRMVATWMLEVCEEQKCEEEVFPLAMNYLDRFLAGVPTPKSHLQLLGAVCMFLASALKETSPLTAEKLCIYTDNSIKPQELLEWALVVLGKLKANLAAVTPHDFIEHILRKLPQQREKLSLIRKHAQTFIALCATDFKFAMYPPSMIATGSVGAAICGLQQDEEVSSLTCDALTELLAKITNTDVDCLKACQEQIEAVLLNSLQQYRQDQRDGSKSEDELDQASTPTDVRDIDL
| Variant | normalised enrichment score |
| --- | --- |
| VKTAKRLNFDDKV [K4A] | 0.248 |
| VKTKKRLNFDAKV [D11A] | 0.111 |
| VKTKRRLNFDDKV [K5R] | 1.42 |
| VKTKKALNFDDKV [R6A] | 0.277 |
| VKTKARANFDDKV [K5A L7A] | 0.283 |
| VKTKKRLNLDDKV [F9L] | -0.0502 |
| VKTKKRLNFDDKA [V13A] | -0.0108 |
| VKTKARLNFDDKV [K5A] | 0.313 |
| VKTKKRLAFDDKV [N8A] | 0.51 |
| VKTKKRLNFADKV [D10A] | -0.304 |

Sample 3
Target: RNA binding protein fox-1 homolog 2, RRM domain, GST-SBP tag (RBFOX2, Homo sapiens, UniProt O43251-10, residues 100-194)
Technique: RNA Bind-n-Seq
Molecule type: RNA
Sample: in vitro
Concentration: 365 nM
Notes: natural RNA segment, single round, ends assumed
Baseline: no-protein control
Direction: higher = stronger binding
Shared flanks, not repeated: GGGAGUUCUACAGUCCGACGAUC … UGGAAUUCUCGGGUGCCAA
Construct (chain): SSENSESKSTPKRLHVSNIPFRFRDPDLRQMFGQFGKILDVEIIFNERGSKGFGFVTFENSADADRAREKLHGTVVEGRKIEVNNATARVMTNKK
| Oligonucleotide | RBNS enrichment (R) |
| --- | --- |
| ACUUUCUUUCUGUAGCAUAGCUUCUGUCUCAGAUGCCCCAGCAAAUAAAUGCUGUCUCUUAUUGGUCGAACUGAAUCCUGUGUAAUAUUUGGGUUGGGAAUAUGGGAAAA | 0.807 |
| AGAGCAAUAAGCAUCAUGCAUCUCCCCGAUUCCCACUAGCACCCCUCUGCCUCUGGCUCAGGUUGCUCAAAGCACAGAUCCCCUCUUAUCCCUGUCCCCAGGACCGAAAC | 1.53 |
| UGGUGCUAGUGCAUGUACCCUGUGGUAUUGCCCCUCUGUCCGUAGUGUGAACUGUCCUGUGAGCUUUAUGUCAGGAGACUGUGACCUUCAUGUCCAGCUUCAAAGAGUUG | 4.34 |
| ACGUAAUUCCUGUUUUCAUGGGUCCUGUAGAUGUUUGAGUCAGGAAGGUAAGGCGGGGAGUGACUGAAUAAACUCUGCCUUUUAAAUUGAGCAUCUGGGCCGGGCAUGGU | 6.45 |
| AAAAAAAAAAAACUCUAUCUCUUGGAAGUAGCUGAGGUAACCUUCCAGCUCCCUGCACCCAGAGGGGGCCUUCUCACCUCUUCUCAGGAAGCAGCUACGACCCAUUGCCC | 0.512 |
| UGAAGAUCCAGUUUCAUACAAACAUUUGUAUGAUGUGAAUAGUUGAUGGCAUUUUUUUGUCAUGAAAAAAAAAUAAUGUAAAUCACAGACUUUUGCCAAAGCUCUUAUUU | 0.948 |
| AAAAAGUAAAGAAGAAAGAUAACAUUAGUGUAUUUCUCCUGUGCUUGCCUUCUGAAGUGGCACAAACCUGUGUUUAUAUAUUUAAAAGAUACUCUAGGAUGAUCACUUGU | 0.32 |
| UAAACUGUCCUGGGCAGAAGUCUUCUCUGGUGCCCUUCUCCCAUCCUCCAGCCCUUCACUUCCCACUGAGGUUGUCUCUUUACUGCCUGGCAUGACAUCUAAAAGCUCAC | 1.01 |

Further values, each from its own experiment
| Substance | target | assay | system | setting | scale | quantity | result |
| --- | --- | --- | --- | --- | --- | --- | --- |
| PhoQ, residues 284 288 289 292 302 303 SMMNNA | PhoP, residues 12 14 15 18 19 HLGGL (Escherichia coli, UniProt P23836) | Sort-seq, item: YFP reporter | E. coli | PhoQ-PhoP variant library, together with: 10 µM Mg2+ | baseline: high Mg2+ state, higher = stronger signaling | fold induction | 0.593 |

Some of these lines once more (sample 1):
| Oligonucleotide | log2 enrichment |
| --- | --- |
| AGUCCUGUGCUACACAUCGUAUGUACCGAAUCGGGGAAAAGGGAAAAGGAAAAGGGGAAAGUAUUAUGUUACGCCGUUCGGAUCUGCACU | -0.391 |
| GUCCUGUGCUACACAUCGUAUGUACCGAAUCGGGGAAAAAAAGGGGAGGGGUUUGGGGAAAGUAUUAUGUUACGCCGUUCGGAUCUGCAC | 1.9 |
